Results gathered from unrelated publications.
Every numbered part comes from another study and shows a few of its results, in no order.

Set 1
Target: RING finger protein unkempt homolog, zinc fingers 1-6, SBP tag (UNK, Homo sapiens, UniProt Q9C0B0, residues 30-357)
UniProt Q9C0B0, sequence (30-357, looked up): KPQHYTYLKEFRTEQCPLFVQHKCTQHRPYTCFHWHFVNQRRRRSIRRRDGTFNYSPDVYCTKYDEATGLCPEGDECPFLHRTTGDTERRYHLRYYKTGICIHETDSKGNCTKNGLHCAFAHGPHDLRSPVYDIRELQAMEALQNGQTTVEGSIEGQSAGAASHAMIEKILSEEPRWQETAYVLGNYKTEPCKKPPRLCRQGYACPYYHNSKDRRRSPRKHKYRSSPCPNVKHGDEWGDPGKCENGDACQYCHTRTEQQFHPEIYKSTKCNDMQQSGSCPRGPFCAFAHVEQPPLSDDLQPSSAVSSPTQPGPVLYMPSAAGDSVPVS
Method: RNA Bind-n-Seq
Form: RNA
Matrix: in vitro
Tested at: 100 nM
Setting: RNA with constant flanks, vertebrate orthologous sites, ends assumed
Baseline: input RNA pool
Reading: higher = stronger binding
For `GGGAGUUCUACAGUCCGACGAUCGGCUCCCCUCUUAACCCUAUAUCUUCUGUUUCAUAGUGCAGAAAUAUUCAUUUGUAUUAUUAGUGGACUUGUUUAAUUUUAGAAAAACUUUGAGUACAGAUACUGUGAGCUUACAUGGAACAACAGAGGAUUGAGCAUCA`, the bound/input enrichment was 0.879 ratio.
The bound/input enrichment of `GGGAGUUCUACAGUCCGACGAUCAGUUUGUAUGUACAUUAUUUACAUUCCUCUGUUGUGUUUGGAAGAAAACAAAAAGACAUUUUAGCCUUUUUUAAGGUUAUUGAUUUAAUUUAAUGUUAUUUGGUUGCAUGAAGUUGCUCUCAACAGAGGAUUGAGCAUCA` is reported as 0.351 ratio.
`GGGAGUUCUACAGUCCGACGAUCCUGAAGCUUUGUGUUUGGCUGCACCUGCAUAAGCUGCUACAAAUAGAAUAAAGAAUUUCAUAGCCUGUGUCUAUCAUUUAGAUGCAUGGAAAAAUGGGCUUUGCACACAAUGGGUUUGGACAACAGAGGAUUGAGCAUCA` gave a bound/input enrichment of 2.56 ratio.
For `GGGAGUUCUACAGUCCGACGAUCUUUAAAUCUCUUCUCCCCUGUCCUGAUUUUAAAAGCCCCGCUUUUUUUAUUUUCUUUUUUUAGGCAUAUGUAGUAAUAUUAGAAACAUUUAAUUUGGGAAACUUUGAUUCUUAAAAGCGACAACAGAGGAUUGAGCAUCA`, the bound/input enrichment was 0.836 ratio.
`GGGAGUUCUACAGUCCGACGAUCUUUCCUUUUUAUUAUGAGUUUCUUUUUUUUUUCCAUUUGCUGAAGUACGCUAUACCAAAUCAGUGAUUGUUAACAAUAAAUUGAUCUGUUAUGGACGUUGCUUAGUGACAUGCAGUUCUUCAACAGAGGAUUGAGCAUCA` gave a bound/input enrichment of 0.508 ratio.
`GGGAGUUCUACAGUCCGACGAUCAUUCAUCUCUCACUUAAUGUCCAAAAUUACUGAGGGUUUGAAACAUUUAGUAGUUUCACAUAGAGCUACACUGGCAGGUGCUCUAAUACUAUCAUAGUGAGAUCAGAUACCAUUGUAGUACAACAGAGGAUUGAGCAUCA` has a bound/input enrichment of 0.719 ratio.
The bound/input enrichment of `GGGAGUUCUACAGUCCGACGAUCGUUGUGACCCAUUUAACAUACACAAAAAAUUAGCCAAAAAAAAUUUGCAUGUAAUUGACUUAGAUGAUGCCACUUUUCUGAGUGCAAAAUUCGGAAGACAGCUUGUACCUGGUUGGAAACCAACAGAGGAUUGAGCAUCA` is reported as 2.04 ratio.
`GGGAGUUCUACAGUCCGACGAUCAAUUGAACAAAAACGUUUCCACUGGGUUUUGCCUGUAAGAAAAAAAUGUACCCGAGCACAUAGAGCUUUUUAAUAGCACUAACCAAUGCCUUUUUAGAUGUAUUUUUGAUGUAUAUAUCUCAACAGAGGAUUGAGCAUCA` gave a bound/input enrichment of 0.725 ratio.
The bound/input enrichment of `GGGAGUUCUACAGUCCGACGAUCAGGGACGUUUUGAUGUGAAAAUUGAAGUUAAGAGCUGAUCACAAGCACAAAUCUUUCCCACUAGCCAUUUAAAAAAUUUAAAAAGAUACAAAAACAAAAACCUACUUGUCUUGAACAAACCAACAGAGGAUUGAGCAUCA` is reported as 3.24 ratio.
`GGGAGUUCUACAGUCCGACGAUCAUGUUUUCGCAUUUCCUGAACAUAAUGGAUAAUCAUUUUUUUUUUCUUAAAUUUGUUCCCAAGUGCUGUUAUAACAAUGUGGAUGGACCAUAAAUGUACUUGCUGCAUUCAUUCAUUUUUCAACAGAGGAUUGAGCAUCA` has a bound/input enrichment of 0.282 ratio.
For `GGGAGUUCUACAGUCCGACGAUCGAGUUACAGAUCAGAGGACUCAGAAACAAGAUCAUCUGCCUCAUGGCUACCAUCUUCACUCAGAAACAGAUGCACGCCUCUCUUUUCCAGGAGAAGGCGAGAAGGAAGGGAUGAAACAGCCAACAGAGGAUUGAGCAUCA`, the bound/input enrichment was 0.318 ratio.

Set 2
Target: Ras GTPase-activating protein-binding protein 1, RRM domain (G3BP1, Homo sapiens, UniProt Q13283)
UniProt Q13283, sequence (whole entry, looked up): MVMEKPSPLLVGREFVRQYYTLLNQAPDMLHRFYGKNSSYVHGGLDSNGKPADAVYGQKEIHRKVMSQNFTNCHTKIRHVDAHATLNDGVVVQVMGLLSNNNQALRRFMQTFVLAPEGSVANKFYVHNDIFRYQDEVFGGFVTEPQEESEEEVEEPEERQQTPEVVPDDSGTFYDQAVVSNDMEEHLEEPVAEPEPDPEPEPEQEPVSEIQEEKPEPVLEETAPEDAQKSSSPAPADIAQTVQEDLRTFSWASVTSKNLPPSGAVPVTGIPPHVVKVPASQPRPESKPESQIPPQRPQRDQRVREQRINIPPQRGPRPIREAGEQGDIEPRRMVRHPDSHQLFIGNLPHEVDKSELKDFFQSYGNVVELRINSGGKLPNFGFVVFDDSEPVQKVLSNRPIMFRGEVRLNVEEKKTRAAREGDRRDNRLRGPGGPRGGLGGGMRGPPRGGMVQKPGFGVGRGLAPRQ
Method: RNA Bind-n-Seq
Form: RNA
Matrix: in vitro
Tested at: 1 µM
Setting: whole 134-nt RNA, ends assumed
Added: 150 mM KCl
Baseline: input library
Reading: higher = stronger binding
The log2 enrichment of `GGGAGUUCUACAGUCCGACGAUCGUCCUGUGCUACACAUCGUAUGUACCGAAUCGGGGAGGGGAAAAAAAGGGGAAAGGGGAAAGUAUUAUGUUACGCCGUUCGGAUCUGCACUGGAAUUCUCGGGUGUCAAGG` is reported as 1.2.
For `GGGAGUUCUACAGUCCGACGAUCCUCAAGUCCUGUGCUACACAUCGUAUGUACCGAAUCGGCCGGGCCGGGGCCGGGAAAGUAUUAUGUUACGCCGUUCGGAUCUGCACUUCCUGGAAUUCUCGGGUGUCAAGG`, the log2 enrichment was -0.575.
`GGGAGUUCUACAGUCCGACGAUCCCCAUGCAGGUGGGCAUCUUUGGGAAGUGGGGCAAGGGGGGGAUAGGGAGGGGGGUAACACUUUGGGAACAGGUGGUCCCAGGUCGUUUCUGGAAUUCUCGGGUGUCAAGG` gave a log2 enrichment of -0.558.
With `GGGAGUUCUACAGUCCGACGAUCCAAGUCCUGUGCUACACAUCGUAUGUACCGAAUCGGGGUGGGGAGGGGUUUGGGGAAAGUAUUAUGUUACGCCGUUCGGAUCUGCACUUCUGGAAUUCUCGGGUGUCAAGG` the log2 enrichment was 0.828.
With `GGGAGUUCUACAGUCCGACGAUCCACAGACAACAAAAACCCACACAGACACAGAGGGAAGGGGUUGGGAUGGGGACAGGGUGCACAGCAGGGCGGGGUAGGACCCCAGCCCCUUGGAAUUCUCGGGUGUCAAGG` the log2 enrichment was -0.104.
`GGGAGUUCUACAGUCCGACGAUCUGGGAGGUGGAUUUUGUUUAUUUUUUUAGCUCAUUUACAGGGGUGGGAAUUUUUUUUUAAUAUGUGUCAUGAAUAAAGUUGUUUUUGAAAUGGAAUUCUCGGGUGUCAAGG` has a log2 enrichment of 1.58.
With `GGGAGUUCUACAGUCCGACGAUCGCAGGAAGUAAAAACAAAUGGAAAUGCUUCGGAUAGUGGCAGGGGUGGGGGUUGCUAAGGCAAGGGUGGGAUGGGAGUGGGUAAAGAGUUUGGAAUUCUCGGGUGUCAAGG` the log2 enrichment was 1.2.
`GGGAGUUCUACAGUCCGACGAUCCACAGACAACACGUACCCACACAGACACAGAGGGAAGGGGUUGGGAUGGGGACAGGGUGCACAGCAGGGCGGGGUAGGACCCCAGCCCCUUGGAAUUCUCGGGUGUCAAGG` gave a log2 enrichment of 0.0319.
`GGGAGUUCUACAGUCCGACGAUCUGGCCCUGGUGGCAUGCGGGGAGGAAGAGGUUGCCUCAUGGAUCGUGGUGGUCCCGGUGGAAUGUUCAGAGGUGGCCGUGGUGGAGACAGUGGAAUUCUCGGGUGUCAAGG` gave a log2 enrichment of 0.729.
The log2 enrichment of `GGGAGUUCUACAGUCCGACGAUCAGUCACUUUUUAAUUUUAUUUAUUAUUUCUCCUCUUAGACCGCAGGAUGGAAACAAGCCCACUGAGACUAGUCAACCUCAAUCUAGCACAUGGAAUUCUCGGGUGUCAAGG` is reported as -1.29.

Set 3
Target: Histone acetyltransferase KAT6A, winged helix 2, GST fusion (KAT6A, Homo sapiens, UniProt Q92794, residues 85-181)
Method: protein binding microarray
Form: double-stranded DNA, one strand shown
Matrix: in vitro
Tested at: not given
Setting: 8-mer, flanks averaged, mean of 2 arrays, mostly near background
Baseline: not given
Reading: higher = stronger binding
Target sequence (chain): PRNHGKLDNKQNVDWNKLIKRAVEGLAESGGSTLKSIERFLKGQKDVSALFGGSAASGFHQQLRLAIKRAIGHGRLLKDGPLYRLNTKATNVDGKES
With `TATAAGCA` the E-score was -0.0029.
`AAACAAAC` gave an E-score of 0.113.
With `GACTTGCA` the E-score was -0.077.
The E-score of `AGGACCAG` is reported as 0.0758.
`ACTCTATA` gave an E-score of -0.178.
`GCCAGCCC` has an E-score of 0.0871.
With `AACGAGTC` the E-score was -0.0841.
The E-score of `TACTGGGA` is reported as 0.0349.
For `AAATGGAG`, the E-score was 0.0512.
With `CAGAAAAG` the E-score was 0.0245.
`CGAGCATC` gave an E-score of 0.0108.
With `CGGCCACA` the E-score was 0.144.
The E-score of `CTGTCTGA` is reported as 0.0533.
`AGTTTCAC` has an E-score of 0.0823.
`GAACCCTA` has an E-score of 0.000505.
For `AAGTTTCT`, the E-score was -0.144.
`ACCGAATG` gave an E-score of 0.122.

Set 4
Target: Probable WRKY transcription factor 33, C-terminal DNA-binding domain (WRKY33, Arabidopsis thaliana, UniProt Q8S8P5, residues 346-449)
Method: DNA-protein interaction ELISA
Form: double-stranded DNA, one strand shown
Matrix: in vitro, bacterial lysate
Tested at: not given
Setting: whole dsDNA probe, crude lysate protein
Baseline: highest signal in screen
Reading: higher = stronger binding
Target sequence (chain): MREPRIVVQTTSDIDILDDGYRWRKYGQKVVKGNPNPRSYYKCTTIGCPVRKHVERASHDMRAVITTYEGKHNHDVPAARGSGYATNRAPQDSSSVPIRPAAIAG
The relative absorbance of `AAAAAAACTCTCCGGGTACAATTGCAAAAA` is reported as 54.5 % of maximum.
`AAAAAAGACACTCTAATTCCGTAGGCAAAA` has a relative absorbance of 29.8 % of maximum.
`AAAAAAATGCGCCCTTTCTGACATAAAAAA` gave a relative absorbance of 34.2 % of maximum.
With `AAAAAAACCTCTTTATTCTCGATTGTAAAA` the relative absorbance was 29.9 % of maximum.
With `AAAAAATCTAGGGGTACCTATTTGGCAAAA` the relative absorbance was 31.6 % of maximum.
`AAAAAATTCTTAGTTAGATTCACCTCAAAA` gave a relative absorbance of 39.8 % of maximum.
`AAAAAACACTGCACTATTGGGAGTTCAAAA` gave a relative absorbance of 37.4 % of maximum.
For `AAAAAAGGAAAACGAGTTCATCTGGTAAAA`, the relative absorbance was 35.9 % of maximum.
With `AAAAAATTGCATTCCACCCTTAGGTTAAAA` the relative absorbance was 60.8 % of maximum.
The relative absorbance of `AAAAAACGCATCATAGCTACGCCCCAAAAA` is reported as 31.4 % of maximum.
For `AAAAAAGCGCGAATTCTAGAACTATAAAAA`, the relative absorbance was 33 % of maximum.
`AAAAAATGGAAAGACCTATACCGGTCAAAA` gave a relative absorbance of 45.1 % of maximum.
`AAAAAAGTGCACGACCCATTTATATAAAAA` has a relative absorbance of 47.8 % of maximum.
With `AAAAAAAGTTCCAGGTCCGATGCTCAAAAA` the relative absorbance was 62.5 % of maximum.
With `AAAAAAGGCGGTCGTAGTTGTGGGAGAAAA` the relative absorbance was 98.9 % of maximum.
The relative absorbance of `AAAAAAATCCATATTATTGCTACCCGAAAA` is reported as 27 % of maximum.
For `AAAAAACCCGTTCTACCTTATTCCTGAAAA`, the relative absorbance was 39.8 % of maximum.

For quick reference, copied from above (set 3):
The E-score of `CTGTCTGA` is reported as 0.0533.
`AGTTTCAC` has an E-score of 0.0823.
`GAACCCTA` has an E-score of 0.000505.
For `AAGTTTCT`, the E-score was -0.144.
